Results gathered from unrelated publications.
“And” joins repeats or separate records; there may be more than shown. ± marks the error that the study gave.

Compound	tested on	assay	test system	setting	scale	measurement	result
Cc1c(C(=O)N[C@H](C(=O)Nc2cccc(C(N)=O)c2)c2ccc(OCc3ccccc3)cc2)cnn1-c1ccccc1	HeLa	cell growth or viability				CC50	> 50 µM
Cc1ccc(S(=O)(=O)N2N=Cc3ccsc3B2O)cc1	HEK-293T	cell growth or viability, MTT		48 h		IC50	> 100 µM
CN1CCCNC(=O)c2cccc(c2)C(=O)NCCCN(C)CCCNc2cccc3c2C(=O)c2cccc(c2C3=O)NCCC1	HeLa	cell growth or viability, CCK-8		1 nM, 48 h		viability	103%
O=C(NCc1cccc(Cl)c1)c1ccc(C2CCCCC2)cc1		hepatocyte stability	cryopreserved human hepatocytes	1 µM		hepatic clearance	12 mL/min/kg
C=C(C)C(C)(C)CCC(C)C1CCC2(C)C3CCC4C(C)C(O)CCC45CC35CCC12C (stereo not drawn)	HaCaT	cytotoxicity, MTT		48 h, 10% FBS		IC50	> 200 µM
Cc1cc(=O)c2c(O)c3c(O[C@@H]4O[C@H](CO)[C@@H](O)[C@H](O)[C@H]4O)cc(O)cc3cc2o1	HepaRG co-cultured with HK-2	MTT		66.67 µM, 48 h	baseline: untreated control	cell viability	64.3 ± 5.75%
O=C(CN1CCOCC1)Nc1ccc(C2CCCCC2)cc1		hepatocyte stability	cryopreserved human hepatocytes	1 µM		hepatic clearance	17 mL/min/kg
NC(=O)c1cccc(NC(=O)c2cc(-c3ccccc3)nn2-c2ccccc2)c1	HeLa	cell growth or viability				CC50	> 50 µM
O=C1NC2(CC2)COc2ncc(F)cc2[C@H]2COCCN2c2ccn3ncc1c3n2	CHL			75 µg/mL, 4 h, with rat liver S9		structural aberrations with gaps	0.7%
N=C(N)NCCC[C@@H]1NC(=O)[C@H](CCCNC(=N)N)NC(=O)[C@@H](C(c2ccccc2)c2ccccc2)NC(=O)[C@H](Cc2c[nH]c3ccccc23)NC(=O)[C@@H](C(c2ccccc2)c2ccccc2)NC(=O)[C@@H](CCCNC(=N)N)NC(=O)[C@@H](CCCNC(=N)N)NC1=O	MRC5	cell growth or viability, MTS		200 µg/mL, 24 h		viability	76 to 81%
NC(=O)c1cccc(NC(=O)c2cc(-c3ccccc3)n(-c3ccccc3)n2)c1	HeLa	cell growth or viability				CC50	> 50 µM
O=C(OC[C@H]1O[C@@H](Oc2ccc(CO)cc2)[C@H](O)[C@@H](O)[C@@H]1O)c1ccc(O)cc1	HaCaT	cytotoxicity, MTT		48 h, 10% FBS		IC50	> 200 µM
CC(C)C[C@@H]1NC(=O)[C@H](CO)NC(=O)[C@H](CC(=O)O)NC(=O)[C@@H]2CCCN2C(=O)[C@H]2CCCN2C(=O)[C@H](C(C)C)NC(=O)[C@H](CC(=O)O)NC(=O)[C@H](CC(N)=O)NC(=O)[C@H](CCCNC(=N)N)NC(=O)[C@H]([C@@H](C)O)NC(=O)[C@H](C(C)C)NC(=O)CCNC(=O)CCNC(=O)[C@H](Cc2ccccc2)NC(=O)[C@H](C(C)C)NC(=O)[C@H](CC(C)C)NC1=O	HEK-293T	subcellular fractionation LC-MS	cytoplasmic fraction	20 µM, 2 h		peptide amount per protein	not detected
CCCCCCCCCCCCOC(=O)c1ccc(O)cc1	Caco-2 monolayers			5 µM, 1 h, basolateral to apical		mass balance	87%
NCCNc1nnnc2c1sc1nc(NCCO)c3c(c12)CCCC3	cryopreserved rat hepatocytes	UHPLC-MS peak area		1 µM, 20 min		percentage of drug-related material	2.2%
Cc1ccccc1-n1nc(C(=O)Nc2cccc(C(N)=O)c2)cc1-c1cccnc1	HeLa	cell growth or viability				CC50	> 50 µM
COc1cc(/C=C/C=C2\SC(=S)NC2=O)ccc1O	HeLa	CellTiter-Glo		5 µM, 24 h, unit not given	baseline: untreated	viability	0.979 and 0.887
O=C(c1cc(-c2ccccc2)n(-c2ccccc2)n1)N1CCc2nc[nH]c2C1	HeLa	cell growth or viability				CC50	> 50 µM
CC(=O)N[C@H](C(=O)N[C@H](C(=O)N[C@@H](CCCNC(=N)N)C(=O)N[C@@H](CC(N)=O)C(=O)N[C@@H](CC(=O)O)C(=O)N[C@H](C(=O)N1CCC[C@@H]1C(=O)N1CCC[C@H]1C(=O)N[C@@H](CC(=O)O)C(=O)N[C@@H](CO)C(=O)N[C@@H](CC(C)C)C(=O)N[C@@H](CC(C)C)C(=O)N[C@H](C(=O)N[C@@H](Cc1ccccc1)C(N)=O)C(C)C)C(C)C)[C@@H](C)O)C(C)C	HEK-293T	subcellular fractionation LC-MS	cytoplasmic fraction	20 µM, 2 h		concentration	not detected
O=C(NCc1ccncc1)c1cc(-c2ccccc2)n(-c2ccccc2)n1	HeLa	cell growth or viability				CC50	> 50 µM
O=CCNCCOn1c(=O)n(OCCNCCO)c(=O)n(OCCNCCOn2c(=O)n(OCCNCCO)c(=O)n(OCCNCCO)c2=O)c1=O	HUVEC	cell growth or viability, MTT		50 µg/mL, 48 h		viability	25.5%

Excerpt of the above:
Compound	tested on	assay	test system	setting	scale	measurement	result
O=C(NCc1ccncc1)c1cc(-c2ccccc2)n(-c2ccccc2)n1	HeLa	cell growth or viability				CC50	> 50 µM
O=C(c1cc(-c2ccccc2)n(-c2ccccc2)n1)N1CCc2nc[nH]c2C1	HeLa	cell growth or viability				CC50	> 50 µM
